# Measured values gathered from unrelated publications.
# Every numbered part comes from another study and shows a few of its results, in no order.

# Set 1 — method: protein-binding microarray; molecule type: double-stranded DNA, one strand shown; matrix: in vitro; concentration: not given; direction: higher = stronger binding
# Target: Transcriptional repressor CTCF (CTCF, Homo sapiens, UniProt P49711, residues 1-727, full length assumed)
# Sequence of UniProt P49711 (whole entry, looked up): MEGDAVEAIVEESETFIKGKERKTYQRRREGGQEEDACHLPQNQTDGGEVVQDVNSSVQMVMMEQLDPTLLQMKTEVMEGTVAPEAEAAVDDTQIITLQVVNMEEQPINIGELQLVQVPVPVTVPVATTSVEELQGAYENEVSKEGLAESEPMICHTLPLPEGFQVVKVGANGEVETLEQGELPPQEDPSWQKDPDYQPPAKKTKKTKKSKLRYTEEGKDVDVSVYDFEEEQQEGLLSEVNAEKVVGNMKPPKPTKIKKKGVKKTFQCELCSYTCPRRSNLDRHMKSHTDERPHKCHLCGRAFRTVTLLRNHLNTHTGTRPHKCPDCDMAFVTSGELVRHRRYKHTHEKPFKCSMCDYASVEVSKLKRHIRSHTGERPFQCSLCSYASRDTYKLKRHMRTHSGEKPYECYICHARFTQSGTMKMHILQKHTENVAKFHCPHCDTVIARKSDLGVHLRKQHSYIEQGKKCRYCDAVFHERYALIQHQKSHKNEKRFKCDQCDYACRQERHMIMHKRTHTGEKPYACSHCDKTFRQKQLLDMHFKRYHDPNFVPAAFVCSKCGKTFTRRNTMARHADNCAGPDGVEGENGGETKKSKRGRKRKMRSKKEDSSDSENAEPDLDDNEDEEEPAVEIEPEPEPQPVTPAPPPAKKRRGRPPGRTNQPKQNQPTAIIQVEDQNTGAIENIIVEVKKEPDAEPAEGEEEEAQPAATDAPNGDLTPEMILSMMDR
# Setting: k-mer, scored over probes, only values ≥0.25
Sequence,E-score
CTATATTA,0.349
TATGTGCA,0.325
GTACGTAA,0.31
CTTGCGCA,0.333
TACCACAA,0.322
AATAAACG,0.27
AACTATAT,0.327
AAGTAATT,0.29
AATTTTGT,0.277
AATAATAT,0.363
TAATACTA,0.327
TAAATATA,0.374
CGCGACAA,0.261
GATTAATA,0.36
AAAAAAAT,0.298
AGTGGCGC,0.459
TAACGTAA,0.251
TATTTACA,0.31
ATAATTGC,0.319
TATTAAAA,0.341
TGAATTAA,0.337
ATATGGCG,0.259
CGAGTATA,0.277
ATTTTATA,0.329
ATTAGTGC,0.278

# Set 2 — method: universal PBM; molecule type: double-stranded DNA, one strand shown; matrix: in vitro; concentration: 600 nM; direction: higher = stronger binding
# Target: Sal-like protein 4, full length isoform A (SALL4, Homo sapiens, UniProt Q9UJQ4, residues 1-1053)
# Sequence of UniProt Q9UJQ4 (whole entry, looked up): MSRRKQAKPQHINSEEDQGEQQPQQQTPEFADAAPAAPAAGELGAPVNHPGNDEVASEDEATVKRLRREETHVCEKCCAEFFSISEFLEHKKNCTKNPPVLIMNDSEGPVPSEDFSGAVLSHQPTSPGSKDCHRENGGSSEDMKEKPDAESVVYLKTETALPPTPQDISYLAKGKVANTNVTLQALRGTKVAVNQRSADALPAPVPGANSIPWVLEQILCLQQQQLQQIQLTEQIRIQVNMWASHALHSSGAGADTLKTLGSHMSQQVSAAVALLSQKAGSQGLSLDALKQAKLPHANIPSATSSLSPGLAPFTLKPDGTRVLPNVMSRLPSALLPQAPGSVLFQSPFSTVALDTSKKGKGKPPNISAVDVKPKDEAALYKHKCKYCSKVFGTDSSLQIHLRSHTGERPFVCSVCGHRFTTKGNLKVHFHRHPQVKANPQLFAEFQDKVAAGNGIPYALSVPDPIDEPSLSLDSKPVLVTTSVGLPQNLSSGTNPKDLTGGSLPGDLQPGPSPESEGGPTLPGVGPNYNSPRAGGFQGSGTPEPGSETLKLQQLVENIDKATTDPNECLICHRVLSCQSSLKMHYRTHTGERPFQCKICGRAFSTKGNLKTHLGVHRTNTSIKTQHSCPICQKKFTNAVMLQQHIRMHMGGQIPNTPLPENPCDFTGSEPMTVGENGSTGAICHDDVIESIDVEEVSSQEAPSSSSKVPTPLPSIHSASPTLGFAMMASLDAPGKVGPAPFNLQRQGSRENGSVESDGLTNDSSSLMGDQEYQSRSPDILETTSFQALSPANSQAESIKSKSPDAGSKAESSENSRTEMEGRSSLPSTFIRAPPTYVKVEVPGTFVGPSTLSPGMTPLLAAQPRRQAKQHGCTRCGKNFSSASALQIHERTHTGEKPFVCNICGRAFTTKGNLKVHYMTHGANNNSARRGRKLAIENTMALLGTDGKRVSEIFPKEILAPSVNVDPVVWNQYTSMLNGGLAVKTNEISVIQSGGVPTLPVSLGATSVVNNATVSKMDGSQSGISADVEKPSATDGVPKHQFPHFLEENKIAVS
# Setting: 8-mer, flanks averaged, mean of replicates
Sequence,E-score
GGCTCACC,-0.37
ACTCTCGA,-0.0384
GTGTGGTA,-0.0714
CTGGCTGA,-0.262
GACGTAAC,0.0152
ACCGGGCA,-0.386
CTCAACAA,0.155
TAACTGGA,0.139
CTCAAAAG,0.0282
ACGTTTGA,0.209
CCTCCGAG,-0.289
CTGTTCTA,0.0609
CTACATGA,0.111
CCAGGAAA,0.0424
CAATTTTC,0.235
CTGGTGGC,-0.389
CAGCCTCA,-0.16
AGCCGTGG,-0.158
CATCATTC,0.0761
CACACTCA,0.264
AGCTGTGC,-0.174
TCACGCGA,-0.0908

# Set 3 — method: RNA Bind-n-Seq; molecule type: RNA; matrix: in vitro; concentration: 200 nM; setting: whole 134-nt RNA, ends assumed; with: 150 mM KCl; relative to: input library; direction: higher = stronger binding
# Target: Fragile X messenger ribonucleoprotein 1, C-terminal low-complexity region (Fmr1, Mus musculus, UniProt P35922)
# Shared flanks, not repeated: GGGAGUUCUACAGUCCGACGAUC … UGGAAUUCUCGGGUGUCAAGG
Sequence,log2 enrichment
CACAGACAACACGCACCCACACAGUCACAGAGGGAAGGGGUUGGGAUGGGGACAGGGUGCACAGCAGGGCGGGGUAGGACCCCAGCCCCU,1.39
CUCAAGUCCUGUGCUACACAUCGUAUGUACCGAAUCGGGCGGGCGGGGCGGGGAAAGUAUUAUGUUACGCCGUUCGGAUCUGCACUUCCA,1.39
CUGUGCUACACAUCGUAUGUACCGAAUCGGGGUUUUUUUGGGUUUUUUUGGGGUUUUUUUGGAAAGUAUUAUGUUACGCCGUUCGGAUCU,-0.0698
CUCAAGUCCUGUGCUACACAUCGUAUGUACCGAAUCGGUGGGGUGGGGUGGGGAAAGUAUUAUGUUACGCCGUUCGGAUCUGCACUUCCA,1.02
AAGUCCUGUGCUACACAUCGUAUGUACCGAAUCGGGAAAGGGAAAAAAAGGGAGGGAAAGUAUUAUGUUACGCCGUUCGGAUCUGCACUU,0.502
GCCCAUGCUAAAGUAAGAUUGUCUAACAAAGUUGAAGCCAUUGAUGUGGAAGAGGCCAAACGCCUCCAUCGGGAAGCUCUGAAGCAGUCU,-0.842
UGGGAGGUGGAUUUUGUUUAUUUUUUUAGCUCAUUUCCAGGGGUGGGAAUUUUGUUUUAAUAUGUGUCAUGAAUAAAGUUGUUUUUGAAA,0.105
GCAGGAAGUAAAAACUAAUGGAAAUGCUUCGGAUAGUGGCAGGGGUGGGGGUUGCUAAGGAAAGGGUGGGAUGGGAGUGGGUAAAGAGUU,0.235
CAAGUCCUGUGCUACACAUCGUAUGUACCGAAUCGGAGGAAAAAGGUUUUUUUGGAAAGUAUUAUGUUACGCCGUUCGGAUCUGCACUUC,-0.905

# Set 4 — method: protein binding microarray; molecule type: double-stranded DNA, one strand shown; matrix: in vitro; concentration: not given; relative to: not given; direction: higher = stronger binding
# Target: Histone acetyltransferase KAT6A, winged helix 1, GST fusion (KAT6A, Homo sapiens, UniProt Q92794, residues 1-85)
# Setting: 8-mer, flanks averaged, mean of 2 arrays, mostly near background
# Residues (chain): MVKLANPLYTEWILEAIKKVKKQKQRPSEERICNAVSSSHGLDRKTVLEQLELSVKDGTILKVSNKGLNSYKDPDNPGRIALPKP
Sequence,E-score
ACACATTA,-0.169
GGGATTTA,0.185
GTTGTCTA,-0.137
GGAATAAC,-0.0104
GGCAGACC,0.187
AAGGTTAC,0.0161
GCTTAATA,0.0117
ATACGTTG,0.0315
CCATGAGA,-0.124
CACGTATA,-0.0491
GAACTTTA,-0.105
GGACAGCC,0.19
TAAGCTAA,-0.117
AAATTACG,-0.0735
GGGGTAAC,-0.143
ATTGGTAC,-0.0165
ACGTTTCG,-0.0707
CGCGTGAA,0.274
CCCTCAAG,-0.214
CCCTTGGA,-0.171
CAGGAGGA,-0.228
ATAGGCAT,-0.0244
GGTGAGAC,-0.161
ACAACCAA,-0.0995
ATGATACA,-0.156
